Assay results from different studies.
Lines come from different studies, so protocols differ. Numbers after ± are the reported error.
Chain of UniProt Q08881 (whole entry, looked up): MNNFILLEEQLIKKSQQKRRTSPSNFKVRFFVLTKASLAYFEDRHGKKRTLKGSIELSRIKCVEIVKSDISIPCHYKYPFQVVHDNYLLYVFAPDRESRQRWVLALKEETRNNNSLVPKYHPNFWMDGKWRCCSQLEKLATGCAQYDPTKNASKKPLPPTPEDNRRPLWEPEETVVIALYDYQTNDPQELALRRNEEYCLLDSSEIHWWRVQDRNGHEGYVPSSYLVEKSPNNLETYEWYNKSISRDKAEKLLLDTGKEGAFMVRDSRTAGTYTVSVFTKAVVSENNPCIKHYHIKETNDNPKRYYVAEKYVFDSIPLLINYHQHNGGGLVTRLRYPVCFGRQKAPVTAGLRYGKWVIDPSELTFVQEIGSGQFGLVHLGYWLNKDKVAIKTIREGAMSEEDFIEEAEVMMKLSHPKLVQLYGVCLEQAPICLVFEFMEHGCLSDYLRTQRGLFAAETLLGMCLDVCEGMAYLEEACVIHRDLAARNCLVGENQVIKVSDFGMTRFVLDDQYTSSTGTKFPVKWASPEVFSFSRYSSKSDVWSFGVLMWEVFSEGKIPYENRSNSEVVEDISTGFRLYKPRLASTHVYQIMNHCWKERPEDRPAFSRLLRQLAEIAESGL

With `CCN(CC)CCCC(C)N(CCCN(C)CCCNC(=O)O[C@H]1CC[C@@]2(C)C(=CC[C@H]3[C@@H]4CC[C@H]([C@H](C)CCCC(C)C)[C@@]4(C)CC[C@@H]32)C1)c1c2ccc(Cl)cc2nc2ccc(OC)cc12` (some centres unmarked) the IC50 was greater than 100 µM (ARPE-19; cytotoxicity, CCK-8; 48 h).
`O=C1C2=Nc3ccccc3CN2C(=S)N1[C@H]1CCCc2ccccc21` has an IC50 of 25.1 ± 9.15 µM (CCRF-CEM; resazurin; 72 h).
`Cc1nc(=S)[nH]c(C)c1/N=N/c1nnc(S)[nH]1` gave an IC50 of 16.1 ± 1.86 µg/mL (Vero; MTT; 72 h).
`C=CC(=O)Nc1cccc(Cn2ncc3cnc(Nc4cnn(CCOC)c4)nc32)c1`: “percent of control” 90% (SBK1 human; binding, KINOMEscan; 100 nM; lower = stronger binding).
With `CCN(CC)CCCC(C)Nc1c2ccc(Cl)cc2nc2ccc(OC)cc12` (centres unmarked) the IC50 was greater than 100 µM (ARPE-19; cytotoxicity, CCK-8; 48 h).
For `COc1ccc(CC[C@H]2OC(=O)[C@@H]3CCCCN3C(=O)C(=O)C(C)(C)COC(=O)C=CCCN(C)C(=O)[C@@H](C)NC(=O)[C@@H](Cc3ccccc3)N(C)C(=O)[C@@H]3CCCN3C(=O)[C@H](CC(C)C)N(C)C(=O)CCC(=O)Nc3cccc2c3)cc1OC`, the IC50 was 1.5 ± 0.3 µM (HUVEC; thymidine uptake, inhibitor).
`Cc1ncsc1-c1ccc(C(C)NC(=O)C2CC(O)CN2C(=O)C(NC(=O)CCCCCCCCCCN2CCCC(Nc3ncc(Cl)c(Nc4ccccc4S(=O)(=O)C(C)C)n3)C2)C(C)(C)C)cc1` (centres unmarked) — result for “log2 fold change”: -2.31 (22Rv1; RNA-seq, measured: ZFHX2 mRNA; concentration not given; baseline: DMSO).
The IC50 of `O=C(CCCCCONC(=O)c1nc(-c2ccc(C(F)(F)F)cc2)cs1)NO` is reported as 10.4 µM (neonatal foreskin fibroblasts; cytotoxicity, sulforhodamine B; 72 h).
With `O=C1/C(=N\c2ccccc2Br)c2ccccc2N1Cc1ccc([N+](=O)[O-])cc1` the IC50 was 56 µM (L02; cell growth or viability, MTT; 48 h).
For `Cc1nn(-c2cccc(N)c2)c(=O)c2cnc(Nc3ccc(N4CCNCC4)cc3)nc12`, the IC50 was greater than 10 µM (Tyrosine-protein kinase ITK/TSK (ITK, Homo sapiens, UniProt Q08881); enzyme activity, inhibitor).
With `CC[C@H](NC(=O)[C@H](CCCCN)NC(=O)[C@H]1CCC[C@@H]1NC(=O)[C@@H](NC(=O)[C@H](CCCCN)NC(=O)[C@H](CCCCN)NC(=O)C[C@@H](NC(=O)[C@@H](NC(=O)[C@H](CCCCN)NC(=O)[C@H](Cc1ccccc1)NC(=O)[C@H]1CCC[C@@H]1NC(=O)CN)[C@@H](C)CC)[C@@H](C)CC)[C@@H](C)CC)C(=O)N[C@@H](Cc1ccccc1)C(N)=O` the IC50 was 13.7 µg/mL (HUVEC; cytotoxicity).
With `Clc1ccnc2c1ccc1c(Cl)ccnc12.[Co+2].[O-]c1c(Br)cc(Br)c2cccnc12.[O-]c1c(Br)cc(Br)c2cccnc12` the IC50 was 60.2 ± 1.55 µM (HL-7702 normal hepatocytes; cell viability, MTT; 48 h).
The remaining binding of `Nc1ncc(-c2cc(-c3cnn(CC(F)(F)F)c3)ncc2F)nc1C(=O)NC1CNCC(F)C1` (centres unmarked) is reported as 86% (TGFBR2; KINOMEscan; 1 µM; baseline: DMSO control).
`CC(C)OC(=O)[C@H](CO)NCc1cc(Cl)c(OCc2cccc(-c3ccccc3)c2Br)cc1OCc1cccnc1` has an IC50 of greater than 10 µM (human Hepatocyte; cell growth or viability, MTT).
The IC50 of `CCOc1cncc(-c2ccc(NC(=O)C3(c4ccnc(NS(=O)(=O)C5CC5)n4)CCOCC3)nc2)n1` is reported as 4.04 µM (SF-268; cell growth or viability, ATP luminescence; 72 h).
With `COc1ccc(CC[C@H]2OC(=O)[C@@H]3CCCCN3C(=O)C(=O)C(C)(C)COC(=O)C=CCCN(C)C(=O)[C@H](Cc3ccccc3)NC(=O)[C@@H](Cc3ccccc3)N(C)C(=O)[C@@H]3CCCN3C(=O)[C@@H](CC(C)C)N(C)C(=O)CCC(=O)Nc3cccc2c3)cc1OC` the IC50 was 0.955 ± 0.113 µM (HUVEC; thymidine uptake, inhibitor).
The IC50 of `Cc1ccc([N+](=O)[O-])cc1S(=O)(=O)N(C)/N=C/c1cnc2ccc(Br)cn12` is reported as 0.362 µM (UACC-62; cell growth or viability).
For `COc1ccc(CC[C@H]2OC(=O)[C@@H]3CCCCN3C(=O)C(=O)C(C)(C)COC(=O)C=CCCN(C)C(=O)[C@H](CC(C)C)N(C)C(=O)[C@H]3CCCN3C(=O)[C@H](CC(C)C)N(C)C(=O)[C@H](Cc3ccccc3)NC(=O)CCC(=O)Nc3cccc2c3)cc1OC`, the IC50 was 0.787 ± 0.15 µM (HUVEC; thymidine uptake, inhibitor).
`C[C@H](c1ccccc1)N1C(=O)C2=Nc3ccccc3CN2C1=S` has an IC50 of 0.516 µM (CCRF-CEM; cell growth or viability, resazurin; 72 h).
For `Cc1ccc2c(Cl)cc(Cl)c([O-])c2n1.Cc1ccc2c(Cl)cc(Cl)c([O-])c2n1.Cc1ccnc(-c2cc(C)ccn2)c1.[Co+2]`, the IC50 was 80.1 ± 1.06 µM (HL-7702 normal hepatocytes; cell viability, MTT; 48 h).
`CC[C@H](C)[C@H](NC(=O)[C@H](CCCCN)NC(=O)[C@H]1CCC[C@@H]1NC(=O)[C@H](CC(C)C)NC(=O)CN)C(=O)N[C@H](CC(=O)N[C@@H](CCCCN)C(=O)N[C@@H](CCCCN)C(=O)N[C@H]1CCC[C@@H]1C(=O)N[C@@H](CC(C)C)C(=O)N[C@@H](CCCCN)C(=O)N[C@@H](CO)CC(=O)N[C@@H](Cc1ccccc1)C(N)=O)[C@@H](C)CC` gave an IC50 of 25.4 µg/mL (HUVEC; cytotoxicity).
`NC(=O)c1ccc(-c2ccccc2Cl)c2c3c([nH]c12)CC[C@@H](N)C3` has an IC50 of 0.0199 µM (HGC-27; cell growth or viability).
The IC50 of `CNS(=O)(=O)Nc1nccc(Cc2c(C)c3ccc(Oc4ncccc4F)cc3oc2=O)c1F` is reported as 0.0153 µM (A2058; cell viability; 7 days).
`CC(C)c1ccc(N(C)c2ccc3c(c2)OCC[C@H]3CNc2cnccc2C(=O)O)cc1` has an IC50 of no less than 10 µM (COLO-829; cell growth or viability, ATP luminescence; 7 days).
With `C=CC(=O)N1CCCC(n2c(=O)c3ncccc3n(Cc3ccc(Oc4ccccc4)cc3)c2=O)C1` (centres unmarked) the IC50 was 1.5 µM (HuT78; cell growth or viability, MTT; 72 h).
`COc1ccc2c(c1)Cc1c-2nc(N)c(C#N)c1-c1ccc(CO)o1` gave an IC50 of 53.4 µM (HuT78; cell growth or viability, ATP luminescence).
Under IC50, `O=C1C2=Nc3ccccc3CN2C(=S)N1c1ccccc1` is recorded as “inactive” (CCRF-CEM; cell viability, resazurin; 72 h).
For `COC1CN([C@H]2CC[C@H]([C@@]3(C)Oc4c(Cl)cc(C(=O)NCc5c(SC)cc(C)[nH]c5=O)c(C)c4O3)CC2)C1`, “log2 fold change” read 2.6 (RNA-seq, measured: TMEM108 mouse homolog; mouse, HT-1376 xenograft, whole blood; dose not given; baseline: vehicle).
`Cc1ccc(CN2C(=O)/C(=N\c3ccc(Cl)cc3Br)c3ccccc32)cc1` gave an IC50 of 23.1 µM (L02; cell growth or viability, MTT; 48 h).
With `Cn1ncc(-c2ccc3c(=O)[nH]nc(CN)c3c2)c1-c1c(F)c(Cl)cc(OC2CC2)c1C#N` the IC50 was 0.04 µM (MKN-45; cell viability, inhibitor, CellTiter-Glo; 120 h, baseline-subtracted).
`Cc1cnc2nc1Nc1cc(F)cc(c1)COC/C=C/COCc1cc(ccc1OCCN1CCCC1)N2` gave an IC50 of 4.54 µM (HEL 92.1.7 JAK2 V617F; cell growth, CCK-8).
`COc1ccc(CC[C@H]2OC(=O)[C@@H]3CCCCN3C(=O)C(=O)C(C)(C)COC(=O)C=CCCN(C)C(=O)[C@H](CC(C)C)N(C)C(=O)[C@H]3CCCN3C(=O)[C@H](Cc3ccc(O)cc3)NC(=O)[C@H](c3ccccc3)NC(=O)CCC(=O)Nc3cccc2c3)cc1OC` has an IC50 of 0.01 ± 0.002 µM (HUVEC; thymidine uptake, inhibitor).
For `Cc1nc(N(C)c2ccc3c(c2)/C(=C/c2ccccc2C)C(=O)N3C)c2ccccc2n1`, the IC50 was 3.06 µM (H22; cell growth or viability, MTT).
The IC50 of `COc1ccc(CC[C@H]2OC(=O)[C@@H]3CCCCN3C(=O)C(=O)C(C)(C)COC(=O)C=CCCN(C)C(=O)[C@H](CC(C)C)N(C)C(=O)[C@H]3CCCN3C(=O)[C@H](c3ccccc3)NC(=O)[C@H](c3ccccc3)NC(=O)CCC(=O)Nc3cccc2c3)cc1OC` is reported as 0.261 ± 0.068 µM (HUVEC; thymidine uptake, inhibitor).
`CN(C)CCOc1cc(NC(=O)c2cccc(C(=O)Nc3cc(OCCN(C)C)c4ccccc4n3)n2)nc2ccccc12` has an IC50 of 2.3 µM (U2OS; cell growth or viability, ATP luminescence; 72 h).
For `O=[N+]([O-])c1ccc(C=NNC(=S)Nc2ccccc2)o1`, the IC50 was greater than 100 µM (IMR-90; cell growth or viability, resazurin).
`CC[C@H](C)[C@H]1C(=O)N(C)CCC=CC(=O)OCC(C)(C)C(=O)C(=O)N2CCCC[C@H]2C(=O)O[C@H](CCc2ccc(OC)c(OC)c2)c2cccc(c2)NC(=O)CCC(=O)N[C@@H](Cc2ccccc2)C(=O)N(C)[C@@H](Cc2ccccc2)C(=O)N2CCC[C@@H]2C(=O)N1C` gave an IC50 of 1.2 ± 0.2 µM (HUVEC; thymidine uptake, inhibitor).
For `O=C1/C(=N\c2cccc(Cl)c2)c2ccccc2N1Cc1ccccc1`, the IC50 was 50.9 µM (L02; cell growth or viability, MTT; 48 h).
`N#Cc1ccc(-c2csc(C(=O)NOCCCCCC(=O)NO)n2)cc1` gave an IC50 of 6.53 µM (neonatal foreskin fibroblasts; cytotoxicity, sulforhodamine B; 72 h).
For `COc1ccc(CC[C@H]2OC(=O)[C@@H]3CCCCN3C(=O)C(=O)C(C)(C)COC(=O)C=CCCN(C)C(=O)[C@H](CO)N(C)C(=O)[C@H]3CCCN3C(=O)[C@H](CO)N(C)C(=O)[C@H](Cc3ccccc3)NC(=O)CCC(=O)Nc3cccc2c3)cc1OC`, the IC50 was 0.0128 ± 0.0031 µM (HUVEC; thymidine uptake, inhibitor).
With `CC1(C)CCC(CN2CCN(c3ccc(C(=O)NS(=O)(=O)c4ccc(NCC5CCOCC5)c([N+](=O)[O-])c4)c(Oc4cnc5[nH]ccc5c4)c3)CC2)=C(c2ccc(Cl)cc2)C1` the IC50 was 0.013 ± 0.0023 µM (RS4-11; caspase-3/7 activation; 4 h).
`NC1=C(Cl)C(=O)c2cccc([N+](=O)[O-])c2C1=O` gave an IC50 of 6.58 µM (MOLT-3; cell growth or viability, XTT).
With `N#Cc1c(N)nc2c(c1-c1ccccc1)Cc1cc(O)ccc1-2` the IC50 was 11.5 µM (HuT78; cell growth or viability, ATP luminescence).
For `COc1ccc(CC[C@H]2OC(=O)[C@@H]3CCCCN3C(=O)C(=O)C(C)(C)COC(=O)C=CCCN(C)C(=O)[C@H](CC(C)C)N(C)C(=O)[C@@H]3CCCN3C(=O)[C@@H](Cc3ccccc3)N(C)C(=O)[C@@H](Cc3ccccc3)NC(=O)CCC(=O)Nc3cccc2c3)cc1OC`, the IC50 was greater than 20 µM (HUVEC; thymidine uptake, inhibitor).
The IC50 of `c1ccc(-c2ccnc3c2ccc2c(-c4ccccc4)ccnc23)cc1` is reported as greater than 50 µM (L02; cell growth or viability, MTT; 48 h).
With `C[C@H](c1ccccc1)N1C(=O)C2=Nc3ccc(Cl)cc3CN2C1=S` the IC50 was 0.375 µM (CCRF-CEM; cell growth or viability, resazurin; 72 h).
The IC50 of `COc1ccccc1/C=C1\C(=O)Nc2ccc(Nc3nc(C)nc4ccccc34)cc21` is reported as 1.72 µM (H22; cell growth or viability, MTT).
With `COc1cccc(N2C(=O)C3=Nc4ccccc4CN3C2=S)c1` the IC50 was 28.1 ± 0.83 µM (CCRF-CEM; resazurin; 72 h).
`Cc1cc([C@H](C(=O)N2C[C@H](O)C[C@H]2C(=O)N[C@@H](CC(=O)N2CCC(N3CCC(C#Cc4ccc(C(=O)N[C@H]5C(C)(C)[C@H](Oc6ccc(C#N)c(Cl)c6)C5(C)C)cc4)CC3)CC2)c2ccc(-c3scnc3C)cc2)C(C)C)on1` gave an IC50 of 0.23 µM (MDA-MB-453; cell growth or viability, CCK-8; 7 days).
`CN1CCCNC(=O)c2cccc(c2)C(=O)NCCCN(C)CCCNc2cccc3c2C(=O)c2cccc(c2C3=O)NCCC1` — result for “log2 fold change”: 2.71 (SAS; RNA-Seq, measured: CCDC136 mRNA; 1 µM, 6 h; baseline: untreated cells).
